Experimental data collected from several papers.
Protocols differ between the studies behind these lines. Several values in a cell are separate wells, animals, samples, runs or records. ± gives the spread as reported.
B1: Escherichia coli lac repressor; chain MKPVTLYDVAEYAGVSYQTVSRVVNQASHVSAKTREKVEAAMAELNYIPNRVAQQLAGKQSLLIGVATSSLALHAPSQIVAAIKSRADQLGASVVVSMVERSGVEACKAAVHNLLAQRVSGLIINYPLDDQDAIAVEAACTNVPALFLDVSDQTPINSIIFSHEDGTRLGVEHLVALGHQQIALLAGPLSSVSARLRLAGWHKYLTRNQIQPIAEREGDWSAMSGFQQTMQMLNEGIVPTAMLVANDQMALGAMRAITESGLRVGADISVVGYDDTEDSSCYIPPLTTIKQDFRLLGQTSVDRLLQLSQGQAVKGNQLLPVSLVKRKTTLAPNTQTASPRALADSLMQLARQVSRLESGQ

Substance	target or system	test	test system	setting	scale	quantity	value
KLLETRLQTGEKPRLLALVEG	UltraID biotin ligase, C-terminal fusion	biotinylation activity, inhibitor, streptavidin/HA fluorescence ratio	peptide, HEK-293T	concentration not given, 30 min, together with: biotin 50 µM	relative to: control	inhibition	> 75%
pertussis toxin	–	immunostaining	humanized mouse, SAH model, middle cerebral artery	dose not given	–	p-PKC level	17.7 MFI
AAATQEMTLVDTPNAK	MsrA and MsrB	LC-MS/MS	peptide, actinonin-treated Escherichia coli proteome	20 min, pH 7.5, 37 °C, together with: MsrA 0.54 µM, MsrB 2.02 µM	–	fractional oxidation	0.151
DPDPE	–	RP-HPLC	HALO RP-amide column	25 µM, acetic acid/acetonitrile, 25 min gradient	–	retention time	9.82 min
CEMDGQCKRDLKCCMGMCGKSCVSPVKA	NF-κB (mouse)	Western blot	peptide, RAW264.7	concentration not given, 6 h pretreatment, together with: LPS for 30 min	–	p-NF-κB/NF-κB ratio	0.16 ± 0.04
hexaarginine	PorA peptide pore	peptide binding, planar bilayer single-channel recording	–	0.5 µM, pH 7.4, -5 mV, cis side, 150 mM KCl	–	koff	1000 ± 108 s⁻¹
aspterric acid	–	–	Arabidopsis thaliana Col-0 seeds	50 µg/mL, seed germination	–	root length	0.01 cm
insulin human	–	measured: CAD	mouse, EcoHIV-infected, brain	ip, dose not given, together with: insulin	relative to: PBS-treated	mRNA fold change	1.07
RNA 1 AACAAAACAAAAUAGCACCGUAAAGC / RNA 2 GCUUUACGGUGCUA (dsRNA; 14 bp duplex, 5' 12 nt overhang)	rhlE 1-384 (Pseudomonas aeruginosa, UniProt Q9I689)	fluorescence polarization	double-stranded RNA	–	–	Kd	0.119 µM
orexin-B	non-responsive control sensor	sensor fluorescence, fluorescence imaging	HEK293T	10 µM, together with: OXB 10 µM	relative to: baseline	maximal ΔF/F0	10.4% and 5.29% and 6.08% and 1.48% and -10.3% and -3.57%
RAFVTI	mouse H2-Dd S73C/human β2m	thermal stability rescue, DSF	peptide	20-fold molar excess, pH 7.2, peptide-deficient, together with: TCEP 1 mM	–	Tm	35.3 ± 0.1 °C
KYHSNVKEL	Mamu-B*08301 MHC class I	peptide binding	peptide, Chinese rhesus macaque	–	–	IC50	> 20 µM
abamectin	CAR	reporter gene, luciferase	–	concentration not given	–	activity	inactive
RGPGRAFVT	mouse H2-Dd S73C/human β2m	thermal stability rescue, DSF	peptide	20-fold molar excess, pH 7.2, peptide-deficient, together with: TCEP 1 mM	–	Tm	34.2 ± 0.2 °C
DNNHCSWLYGYWEWTLWGED	UltraID biotin ligase, C-terminal fusion	biotinylation activity, inhibitor, streptavidin/HA fluorescence ratio	peptide, HEK-293T	concentration not given, 30 min, together with: biotin 50 µM	relative to: control	inhibition	> 75%
HVLVMSATRR	–	–	peptide, C57BL/6J mice	Alzet osmotic pump, 3 mg/kg, 8 weeks	–	serum sodium	148 mmol/L and 150 mmol/L
TPPLVRLVF	Mamu-A1*02601 MHC class I	peptide binding	peptide, Chinese rhesus macaque	–	–	IC50	> 20 µM
EFTEDELPSDSCVFGGQKLTL	IKK, human	–	peptide	500 µM, 0 min, 30 °C, together with: IκBα 1 µM	relative to: no peptide	IκBα phosphorylation	0%

Substance	target or system	test	test system	setting	scale	quantity	value
IINEEAADW	Mamu-A1*02601 MHC class I	peptide binding	peptide, Chinese rhesus macaque	–	–	IC50	> 20 µM
capreomycin sulfate	–	dialysis	porcine stomach mucin	4 h, 37 °C, drug alone	relative to: without mucin	efflux with mucin	44%
B1 (Escherichia coli lac repressor)	lac repressor Escherichia coli	–	–	concentration not given, O1 operator DNA, together with: [14C]IPTG	–	remaining binding	100%
AAAALERLLQQLAAALAAGEL	UltraID biotin ligase, C-terminal fusion	biotinylation activity, inhibitor, streptavidin/HA fluorescence ratio	peptide, HEK-293T	concentration not given, 30 min, together with: biotin 50 µM	relative to: control	inhibition	> 75%
KFGLPRIVA	Mamu-A1*02601 MHC class I	peptide binding	peptide, Chinese rhesus macaque	–	–	IC50	> 20 µM
nonaarginine	PorA peptide pore	peptide binding, planar bilayer single-channel recording	–	0.5 µM, pH 7.4, +25 mV, trans side, 150 mM KCl	–	koff	606 ± 60 s⁻¹
YTSGPGIRY	Mamu-A1*02601 MHC class I	peptide binding	peptide, Chinese rhesus macaque	–	–	IC50	> 20 µM
heparin sodium	–	–	healthy Chinese adult volunteers	continuous intravenous infusion, 8 IU/kg/h, 5 days	–	subjects with decreased hemoglobin	0%
RGPGRAFV	mouse H2-Dd S73C/human β2m	thermal stability rescue, DSF	peptide	20-fold molar excess, pH 7.2, peptide-deficient, together with: TCEP 1 mM	–	Tm	34.7 ± 0.3 °C
colistin	Aspergillus fumigatus	–	solid minimal medium	10 µM, 4 d	relative to: untreated control	radial growth ratio	1.01 and 0.99 and 0.98
FAAPQFSLW	Mamu-B*08301 MHC class I	peptide binding	peptide, Chinese rhesus macaque	–	–	IC50	> 20 µM
glucagon	–	arteriovenous isotope dilution	human, non-diabetic	iv, dose not given, overnight fasted, baseline	–	splanchnic extraction	29.1 ± 2.9%
6'-sialyl-N-acetyllactosamine	HMW2 adhesin Haemophilus influenzae	glycan array	Escherichia coli, DH5α expressing HMW2	concentration not given	relative to: empty vector	binding signal	27 fold
amyloid β-peptide (1–28)	–	substrate, LC-MS	phosphate buffer	10 µM, 12 h, pH 7.4, 25 °C, together with: imprinted nanoparticle 1 equiv	–	remaining substrate	< 0.1%
RSATETLAG	Mamu-A1*02601 MHC class I	peptide binding	peptide, Chinese rhesus macaque	–	–	IC50	> 20 µM
Polymyxin B	–	–	mouse	intraperitoneal, 30 mg/kg single dose, day 4	–	survival	0%
VPIPFAAAQ	Mamu-B*08301 MHC class I	peptide binding	peptide, Chinese rhesus macaque	–	–	IC50	> 20 µM
GRAFVTI	mouse H2-Dd/human β2m	thermal stability rescue, DSF	peptide	20-fold molar excess, pH 7.2, peptide-deficient, UV-irradiated	–	Tm	35.8 ± 0.3 °C

Repeated from above:
Substance	target or system	test	test system	setting	scale	quantity	value
heparin sodium	–	–	healthy Chinese adult volunteers	continuous intravenous infusion, 8 IU/kg/h, 5 days	–	subjects with decreased hemoglobin	0%
FAAPQFSLW	Mamu-B*08301 MHC class I	peptide binding	peptide, Chinese rhesus macaque	–	–	IC50	> 20 µM
abamectin	CAR	reporter gene, luciferase	–	concentration not given	–	activity	inactive
